Measurements of several laboratories.
Compare with care: the assays were run in different laboratories. ± marks the error that the study gave.
HLA class I histocompatibility antigen, B alpha chain allele B*18:01: HLA class I histocompatibility antigen, B alpha chain, allele B*18:01 (Homo sapiens, UniProt P01889)
ACHE: Acetylcholinesterase (ACHE, Homo sapiens, UniProt P22303)
Sequence of UniProt P22303 (whole entry, looked up): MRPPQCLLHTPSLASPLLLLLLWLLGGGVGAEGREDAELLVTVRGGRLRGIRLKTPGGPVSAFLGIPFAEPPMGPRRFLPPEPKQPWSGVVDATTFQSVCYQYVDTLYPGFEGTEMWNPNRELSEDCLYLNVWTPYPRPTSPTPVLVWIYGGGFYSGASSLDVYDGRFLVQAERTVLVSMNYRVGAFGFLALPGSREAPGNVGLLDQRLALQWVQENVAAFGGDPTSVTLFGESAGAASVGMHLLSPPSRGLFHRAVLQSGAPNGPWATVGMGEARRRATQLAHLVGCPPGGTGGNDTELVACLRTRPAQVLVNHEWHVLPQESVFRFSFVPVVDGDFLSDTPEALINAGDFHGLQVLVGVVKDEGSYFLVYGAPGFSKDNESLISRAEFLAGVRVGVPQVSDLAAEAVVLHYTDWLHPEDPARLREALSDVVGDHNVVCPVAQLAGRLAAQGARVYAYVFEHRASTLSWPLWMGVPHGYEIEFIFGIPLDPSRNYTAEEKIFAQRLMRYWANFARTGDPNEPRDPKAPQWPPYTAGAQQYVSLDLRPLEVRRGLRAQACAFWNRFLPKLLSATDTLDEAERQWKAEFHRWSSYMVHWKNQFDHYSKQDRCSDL
cas9: CRISPR-associated endonuclease Cas9/Csn1 (cas9, Streptococcus pyogenes serotype M1, UniProt Q99ZW2)
Sequence of UniProt Q99ZW2 (whole entry, looked up): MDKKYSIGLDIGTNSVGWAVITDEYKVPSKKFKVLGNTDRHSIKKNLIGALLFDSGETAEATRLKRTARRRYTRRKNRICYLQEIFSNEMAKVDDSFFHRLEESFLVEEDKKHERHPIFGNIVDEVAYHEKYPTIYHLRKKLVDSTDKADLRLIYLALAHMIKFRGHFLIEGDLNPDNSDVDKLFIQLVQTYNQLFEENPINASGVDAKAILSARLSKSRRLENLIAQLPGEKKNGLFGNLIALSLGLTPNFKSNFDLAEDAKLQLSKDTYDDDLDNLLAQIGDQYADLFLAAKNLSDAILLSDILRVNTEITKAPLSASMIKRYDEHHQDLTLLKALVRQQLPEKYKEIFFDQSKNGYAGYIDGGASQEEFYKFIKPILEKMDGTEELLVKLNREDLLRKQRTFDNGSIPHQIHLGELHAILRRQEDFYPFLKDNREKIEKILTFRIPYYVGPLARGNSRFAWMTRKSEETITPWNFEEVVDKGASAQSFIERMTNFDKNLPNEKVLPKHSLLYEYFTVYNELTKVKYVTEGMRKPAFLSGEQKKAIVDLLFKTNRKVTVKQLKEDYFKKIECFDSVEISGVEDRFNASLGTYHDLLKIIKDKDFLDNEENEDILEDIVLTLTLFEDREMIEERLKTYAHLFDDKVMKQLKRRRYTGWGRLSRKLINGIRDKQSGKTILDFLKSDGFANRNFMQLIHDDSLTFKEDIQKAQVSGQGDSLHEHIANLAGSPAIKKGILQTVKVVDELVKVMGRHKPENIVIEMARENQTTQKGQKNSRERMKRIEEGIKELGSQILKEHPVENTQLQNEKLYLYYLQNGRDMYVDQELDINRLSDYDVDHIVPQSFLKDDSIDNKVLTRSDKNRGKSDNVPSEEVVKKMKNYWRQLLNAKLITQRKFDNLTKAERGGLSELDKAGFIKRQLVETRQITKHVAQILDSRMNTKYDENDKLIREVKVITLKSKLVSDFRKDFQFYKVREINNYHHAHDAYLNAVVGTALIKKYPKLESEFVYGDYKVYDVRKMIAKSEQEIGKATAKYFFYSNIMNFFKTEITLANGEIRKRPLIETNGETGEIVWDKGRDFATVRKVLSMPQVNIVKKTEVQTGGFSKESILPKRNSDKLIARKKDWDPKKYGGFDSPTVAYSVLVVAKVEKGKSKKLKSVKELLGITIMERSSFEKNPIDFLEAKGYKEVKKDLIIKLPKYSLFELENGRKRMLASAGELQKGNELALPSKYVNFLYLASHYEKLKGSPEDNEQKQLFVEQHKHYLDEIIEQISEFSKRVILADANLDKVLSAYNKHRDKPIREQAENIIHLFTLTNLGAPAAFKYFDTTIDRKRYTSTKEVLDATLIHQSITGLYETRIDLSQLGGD
Sequence of UniProt P31645 (whole entry, unmodified, looked up): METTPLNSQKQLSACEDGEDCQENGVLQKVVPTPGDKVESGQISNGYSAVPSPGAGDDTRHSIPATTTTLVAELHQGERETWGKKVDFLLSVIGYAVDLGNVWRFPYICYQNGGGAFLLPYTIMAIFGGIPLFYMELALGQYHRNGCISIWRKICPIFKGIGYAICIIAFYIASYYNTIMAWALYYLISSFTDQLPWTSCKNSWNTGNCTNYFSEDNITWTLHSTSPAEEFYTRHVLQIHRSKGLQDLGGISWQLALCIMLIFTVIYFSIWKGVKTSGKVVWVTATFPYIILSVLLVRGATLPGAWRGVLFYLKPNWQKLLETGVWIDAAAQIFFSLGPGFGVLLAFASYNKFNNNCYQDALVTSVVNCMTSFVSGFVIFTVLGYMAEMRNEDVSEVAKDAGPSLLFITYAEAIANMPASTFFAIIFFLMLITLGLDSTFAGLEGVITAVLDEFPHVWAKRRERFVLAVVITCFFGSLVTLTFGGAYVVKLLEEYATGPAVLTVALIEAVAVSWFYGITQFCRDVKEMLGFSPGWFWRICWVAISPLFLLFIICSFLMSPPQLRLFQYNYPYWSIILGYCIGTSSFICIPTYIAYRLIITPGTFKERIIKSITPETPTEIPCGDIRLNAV
Sequence of UniProt O15245 (whole entry, looked up): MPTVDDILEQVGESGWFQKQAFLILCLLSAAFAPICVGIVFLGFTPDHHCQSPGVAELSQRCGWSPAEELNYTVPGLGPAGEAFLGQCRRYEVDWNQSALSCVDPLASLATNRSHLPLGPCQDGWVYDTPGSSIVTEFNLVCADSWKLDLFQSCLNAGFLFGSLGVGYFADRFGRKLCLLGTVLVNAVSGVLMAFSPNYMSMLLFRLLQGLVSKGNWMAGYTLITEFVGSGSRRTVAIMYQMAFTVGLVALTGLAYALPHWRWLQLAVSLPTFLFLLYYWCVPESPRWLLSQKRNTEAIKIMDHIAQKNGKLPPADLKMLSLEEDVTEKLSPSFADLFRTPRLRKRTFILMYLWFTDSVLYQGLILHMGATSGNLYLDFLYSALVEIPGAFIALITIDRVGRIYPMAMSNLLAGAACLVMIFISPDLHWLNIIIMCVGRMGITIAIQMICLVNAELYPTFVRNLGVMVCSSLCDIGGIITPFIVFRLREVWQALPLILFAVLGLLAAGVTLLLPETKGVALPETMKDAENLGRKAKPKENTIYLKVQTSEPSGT
Sequence of UniProt P07384 (whole entry, looked up): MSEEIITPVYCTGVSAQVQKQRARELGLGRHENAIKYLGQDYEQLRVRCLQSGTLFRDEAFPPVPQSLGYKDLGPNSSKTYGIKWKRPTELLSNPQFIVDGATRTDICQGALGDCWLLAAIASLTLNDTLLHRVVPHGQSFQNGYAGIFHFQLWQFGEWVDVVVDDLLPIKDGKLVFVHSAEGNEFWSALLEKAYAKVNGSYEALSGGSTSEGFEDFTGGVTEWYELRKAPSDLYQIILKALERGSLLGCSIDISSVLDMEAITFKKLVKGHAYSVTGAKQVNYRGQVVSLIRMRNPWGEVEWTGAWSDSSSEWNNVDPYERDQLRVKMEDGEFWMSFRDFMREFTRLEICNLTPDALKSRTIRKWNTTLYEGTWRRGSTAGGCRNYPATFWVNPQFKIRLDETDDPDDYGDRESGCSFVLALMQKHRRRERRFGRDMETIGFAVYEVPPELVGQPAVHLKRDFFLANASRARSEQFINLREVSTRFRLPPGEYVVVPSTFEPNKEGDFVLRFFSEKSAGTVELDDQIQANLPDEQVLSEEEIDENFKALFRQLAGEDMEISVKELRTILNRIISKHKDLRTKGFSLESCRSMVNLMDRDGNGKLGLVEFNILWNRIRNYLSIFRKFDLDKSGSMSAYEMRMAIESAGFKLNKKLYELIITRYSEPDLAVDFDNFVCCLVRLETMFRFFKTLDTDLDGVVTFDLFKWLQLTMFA
Sequence of UniProt P20618 (whole entry, looked up): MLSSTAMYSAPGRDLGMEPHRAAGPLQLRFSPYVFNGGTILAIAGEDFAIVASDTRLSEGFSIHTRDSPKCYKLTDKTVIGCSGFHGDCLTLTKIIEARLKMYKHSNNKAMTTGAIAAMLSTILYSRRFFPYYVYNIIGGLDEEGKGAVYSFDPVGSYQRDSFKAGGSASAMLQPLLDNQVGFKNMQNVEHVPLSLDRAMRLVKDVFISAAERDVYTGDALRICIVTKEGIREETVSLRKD
Sequence of UniProt P51617 (whole entry, looked up): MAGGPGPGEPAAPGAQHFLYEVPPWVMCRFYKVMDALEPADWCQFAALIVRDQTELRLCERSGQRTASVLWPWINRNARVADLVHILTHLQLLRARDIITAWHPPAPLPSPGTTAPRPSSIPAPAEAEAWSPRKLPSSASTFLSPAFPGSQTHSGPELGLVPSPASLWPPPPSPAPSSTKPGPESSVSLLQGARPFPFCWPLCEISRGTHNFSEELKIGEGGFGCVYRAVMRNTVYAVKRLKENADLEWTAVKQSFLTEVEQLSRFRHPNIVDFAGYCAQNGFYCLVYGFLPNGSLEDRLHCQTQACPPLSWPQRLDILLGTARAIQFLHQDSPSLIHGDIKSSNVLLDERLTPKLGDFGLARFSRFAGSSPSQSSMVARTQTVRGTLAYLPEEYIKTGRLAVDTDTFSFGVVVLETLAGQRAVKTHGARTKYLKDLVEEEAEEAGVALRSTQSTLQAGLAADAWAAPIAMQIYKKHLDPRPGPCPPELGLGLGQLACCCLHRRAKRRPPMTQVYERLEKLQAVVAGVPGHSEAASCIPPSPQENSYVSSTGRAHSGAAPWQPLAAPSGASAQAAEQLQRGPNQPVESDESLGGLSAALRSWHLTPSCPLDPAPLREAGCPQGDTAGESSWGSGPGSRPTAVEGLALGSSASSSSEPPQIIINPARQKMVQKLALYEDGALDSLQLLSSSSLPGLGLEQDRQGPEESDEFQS
Sequence of UniProt P49720 (whole entry, looked up): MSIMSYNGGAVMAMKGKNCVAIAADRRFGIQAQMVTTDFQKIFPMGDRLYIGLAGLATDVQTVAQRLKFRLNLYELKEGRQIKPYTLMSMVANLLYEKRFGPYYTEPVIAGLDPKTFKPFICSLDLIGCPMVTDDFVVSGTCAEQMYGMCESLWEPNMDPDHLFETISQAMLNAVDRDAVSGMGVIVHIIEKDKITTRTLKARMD

With COc1cccc(N(C)C(=S)Oc2ccc3c(c2)CCCC3)n1 the IC50 was 2.19 µM (Cytochrome P450 2B6 (CYP2B6, Homo sapiens, UniProt P20813); inhibitor; 20 min).
For COc1cc(Nc2ncc(F)c(Nc3ccc4c(n3)NC(=O)C(C)(C)O4)n2)cc(OC)c1OC, the IC50 was greater than 10 µM (Sodium-dependent serotonin transporter, cocaine binding site (SLC6A4, Homo sapiens, UniProt P31645); binding; cocaine binding site).
CCC[C@H](NC(=O)[C@@H]1[C@H]2CCC[C@H]2CN1C(=O)[C@@H](NC(=O)[C@@H](NC(=O)c1cnccn1)C1CCCCC1)C(C)(C)C)C(=O)C(=O)NC1CC1 has an IC50 of 0.725 µM (Chymase (CMA1, Homo sapiens, UniProt P23946); enzyme activity, inhibitor; with: FP-biotin 1 µM).
CC(C)C[C@H](NC(=O)[C@@H](N)CCC(N)=O)C(=O)N[C@H](C(=O)N1CCC[C@H]1C(=O)N[C@H](C(=O)N[C@@H](Cc1c[nH]c2ccccc12)C(=O)N[C@@H](CCCNC(=N)N)C(=O)N[C@H](C(=O)N[C@@H](Cc1ccc(O)cc1)C(=O)O)C(C)C)[C@@H](C)O)[C@@H](C)O gave an IC50 of greater than 70 µM (HLA class I histocompatibility antigen, B alpha chain allele B*18:01; peptide-MHC binding, radioligand competition binding).
The IC50 of CNCCC(Oc1ccc(C(F)(F)F)cc1)c1ccccc1 (stereo not shown) is reported as 0.82 ± 0.25 µM (Neuronal acetylcholine receptor; alpha9/alpha10 (Homo sapiens, UniProt Q9GZZ6+Q9UGM1); inhibitor).
For CN(C)C(=O)C(CCN1CCC(O)(c2ccc(Cl)cc2)CC1)(c1ccccc1)c1ccccc1, the IC50 was 6.2 ± 1.9 µM (Calcium-activated potassium channel subunit alpha-1, with LRRC26 γ1 subunit (KCNMA1, Homo sapiens, UniProt Q12791); BK channel conductance, inhibitor, inside-out patch clamp; BKα/γ1, Vm 20 mV, nominally Ca2+-free).
CCN1CCN(Cc2ccc(Nc3nc4cc(Oc5ccnc(NC(C)=O)c5)ccc4n3C)cc2C(F)(F)F)CC1 gave an IC50 of 29.8 ± 0.4 µM (Protein kinase 6 (Plasmodium falciparum, UniProt Q8IDW1); enzyme activity, inhibitor).
With C[N+]1(C)CCC(OC(=O)C(O)(c2ccccc2)C2CCCC2)C1 (stereo not shown) the IC50 was 11.1 µM (Gag polyprotein, nucleocapsid protein p7 (gag, Human immunodeficiency virus type 1 group M subtype B, UniProt P04591); NCp7-RNA binding, AlphaScreen; HIV-1; with: 25 nM NCp7, 12.5 nM RNA).
With COc1ccc(S(=O)(=O)Oc2ccc3c(c2)Oc2nc4c(c(N)c2C3c2cccc([N+](=O)[O-])c2)CCCC4)cc1 (stereo not shown) the IC50 was 1.54 µM (ACHE; enzyme activity, inhibitor).
Nc1ccn([C@@H]2O[C@H](COP(=O)(O)OP(=O)(O)OP(=O)(O)O)[C@@H](O)[C@H]2O)c(=O)n1 has an IC50 of 107 µM (pyrG (Escherichia coli, UniProt P0A7E5); enzyme activity; with: 6.0 mM glutamine, 1.0 mM ATP, 0.05 mM UTP).
Cc1cnc(CNC(=O)c2c(=O)c3ccc(N4CCCN(C)CC4)nc3n3c2sc2ccccc23)cn1 has an IC50 of 20 to 50 µM (cas9; circular plasmid substrate; Streptococcus pyogenes).
CC[C@H](C)[C@H](NC(=O)[C@H](CC(C)C)NC(=O)CNC(=O)[C@H](CCCNC(=N)N)NC(=O)[C@H](CC(C)C)NC(=O)[C@@H](NC(=O)[C@H](CCSC)NC(=O)[C@@H]1CCCN1C(=O)CN)C(C)C)C(=O)N[C@H](C(=O)O)[C@@H](C)O gave an IC50 of greater than 70 µM (HLA class I histocompatibility antigen, B alpha chain allele B*18:01; peptide-MHC binding, radioligand competition binding).
The IC50 of C[C@H]1CN(c2n[nH]c3nc(N[C@H]4CC[C@H](NS(=O)(=O)CCC(F)(F)F)CC4)ncc23)CCO1 is reported as no less than 20 µM (Interleukin-1 receptor-associated kinase 1 (IRAK1, Homo sapiens, UniProt P51617); biochemical).
The IC50 of N.N.O=C([O-])C1(C(=O)[O-])CCC1.[Pt+2] is reported as 50 to 100 µM (cas9; circular plasmid substrate; Streptococcus pyogenes).
CCC(C(=O)Nc1cc(NC2CNC2)ccc1C)n1cccc2nc(SCc3ccc(F)cc3)nc1-2 (stereo not shown) has an IC50 of greater than 100 µM (Calpain-1 catalytic subunit (CAPN1, Homo sapiens, UniProt P07384); enzyme activity).
With CNC(C)Cc1ccc2nonc2c1 (stereo not shown) the IC50 was 17.4 ± 7.8 µM (Solute carrier family 22 member 1 (SLC22A1, Homo sapiens, UniProt O15245)).
Nc1c2c(nc3c1C(c1cccc([N+](=O)[O-])c1)c1ccc(OS(=O)(=O)c4ccccc4)cc1O3)CCCC2 (stereo not shown) gave an IC50 of 5.51 µM (ACHE; enzyme activity, inhibitor).
CCOP(=S)(OCC)SC[S+]([O-])CC (stereo not shown) has an IC50 of 145 ± 20.8 µM (ACHE; enzyme activity, inhibitor).
For NCCOCC(=O)N1CCCC(C(=O)NCc2nc(-c3ccc(-c4ccc(F)cc4)cc3)cs2)C1 (stereo not shown), the IC50 was greater than 30 µM (PSMB1/PSMB8/PSMB3 (Homo sapiens, UniProt P20618+P28062+P49720)).
C[C@H]1COCCN1c1nc(NCc2cccnc2C(F)(F)F)c2cccnc2n1 has an IC50 of greater than 100 µM (human NMDA receptor; agonist mode).
The IC50 of CCOP(=O)(OCC)Oc1ccc2c(C)c(Cl)c(=O)oc2c1 is reported as 0.009 µM (Acetylcholinesterase (Rhipicephalus microplus, UniProt O45210, W384F)).
O=C(O)C1=CC(=C(c2ccc(O)c(C(=O)O)c2)c2ccc(O)c(C(=O)O)c2)C=CC1=O gave an IC50 of 5 to 10 µM (cas9; linear substrate; Streptococcus pyogenes).
The IC50 of Cc1ccc(S(=O)(=O)Oc2ccc3c(c2)Oc2nc4c(c(N)c2C3c2ccc(Cl)c(Cl)c2)CCCC4)cc1 (stereo not shown) is reported as 0.476 µM (ACHE; enzyme activity, inhibitor).
CCCCCCCCOc1ccccc1C(=O)Nc1ccc(C(=O)OCC[N+](C)(CC)CC)cc1 has an IC50 of 20 to 50 µM (cas9; linear substrate; Streptococcus pyogenes).
The IC50 of CC(=O)N1C[C@@H](CCN2CC=C(c3c[nH]c4cc(Cl)ccc34)CC2)c2ccccc21 is reported as 1.58 µM (Sodium-dependent serotonin transporter (SLC6A4, Homo sapiens, UniProt P31645, R104E)).
The IC50 of CN1CCN(c2cc(-c3ccncc3)c(-c3ccc4ccccc4c3)nn2)CC1 is reported as 11 µM (Histamine H3 receptor (HRH3, Homo sapiens, UniProt Q9Y5N1); antagonist, FLIPR calcium).
C=CC(=O)OCCCC gave an IC50 of greater than 50 µM (uncharacterized protein (Bradysia odoriphaga, UniProt A0A2S0X9G4); binding, competitive fluorescence displacement; pH 7.4).
The IC50 of CSCC[C@H](NC(=O)[C@@H](NC(=O)[C@@H](NC(=O)[C@H](CC(C)C)NC(=O)[C@H](CC(N)=O)NC(=O)[C@H](CC(N)=O)NC(=O)[C@@H](NC(=O)[C@H](C)NC(=O)[C@@H](N)CC(C)C)[C@@H](C)O)C(C)C)C(C)C)C(=O)O is reported as greater than 70 µM (HLA class I histocompatibility antigen, B alpha chain allele B*18:01; peptide-MHC binding, radioligand competition binding).

Repeated from above:
CC(C)C[C@H](NC(=O)[C@@H](N)CCC(N)=O)C(=O)N[C@H](C(=O)N1CCC[C@H]1C(=O)N[C@H](C(=O)N[C@@H](Cc1c[nH]c2ccccc12)C(=O)N[C@@H](CCCNC(=N)N)C(=O)N[C@H](C(=O)N[C@@H](Cc1ccc(O)cc1)C(=O)O)C(C)C)[C@@H](C)O)[C@@H](C)O gave an IC50 of greater than 70 µM (HLA class I histocompatibility antigen, B alpha chain allele B*18:01; peptide-MHC binding, radioligand competition binding).
For CN(C)C(=O)C(CCN1CCC(O)(c2ccc(Cl)cc2)CC1)(c1ccccc1)c1ccccc1, the IC50 was 6.2 ± 1.9 µM (Calcium-activated potassium channel subunit alpha-1, with LRRC26 γ1 subunit (KCNMA1, Homo sapiens, UniProt Q12791); BK channel conductance, inhibitor, inside-out patch clamp; BKα/γ1, Vm 20 mV, nominally Ca2+-free).
